Assay results collected from several papers.
Parts stem from different laboratories: compare values within a part only. Positions count from the first letter of the parent shown.
Chain of UniProt Q5S007 (whole entry, unmodified, looked up): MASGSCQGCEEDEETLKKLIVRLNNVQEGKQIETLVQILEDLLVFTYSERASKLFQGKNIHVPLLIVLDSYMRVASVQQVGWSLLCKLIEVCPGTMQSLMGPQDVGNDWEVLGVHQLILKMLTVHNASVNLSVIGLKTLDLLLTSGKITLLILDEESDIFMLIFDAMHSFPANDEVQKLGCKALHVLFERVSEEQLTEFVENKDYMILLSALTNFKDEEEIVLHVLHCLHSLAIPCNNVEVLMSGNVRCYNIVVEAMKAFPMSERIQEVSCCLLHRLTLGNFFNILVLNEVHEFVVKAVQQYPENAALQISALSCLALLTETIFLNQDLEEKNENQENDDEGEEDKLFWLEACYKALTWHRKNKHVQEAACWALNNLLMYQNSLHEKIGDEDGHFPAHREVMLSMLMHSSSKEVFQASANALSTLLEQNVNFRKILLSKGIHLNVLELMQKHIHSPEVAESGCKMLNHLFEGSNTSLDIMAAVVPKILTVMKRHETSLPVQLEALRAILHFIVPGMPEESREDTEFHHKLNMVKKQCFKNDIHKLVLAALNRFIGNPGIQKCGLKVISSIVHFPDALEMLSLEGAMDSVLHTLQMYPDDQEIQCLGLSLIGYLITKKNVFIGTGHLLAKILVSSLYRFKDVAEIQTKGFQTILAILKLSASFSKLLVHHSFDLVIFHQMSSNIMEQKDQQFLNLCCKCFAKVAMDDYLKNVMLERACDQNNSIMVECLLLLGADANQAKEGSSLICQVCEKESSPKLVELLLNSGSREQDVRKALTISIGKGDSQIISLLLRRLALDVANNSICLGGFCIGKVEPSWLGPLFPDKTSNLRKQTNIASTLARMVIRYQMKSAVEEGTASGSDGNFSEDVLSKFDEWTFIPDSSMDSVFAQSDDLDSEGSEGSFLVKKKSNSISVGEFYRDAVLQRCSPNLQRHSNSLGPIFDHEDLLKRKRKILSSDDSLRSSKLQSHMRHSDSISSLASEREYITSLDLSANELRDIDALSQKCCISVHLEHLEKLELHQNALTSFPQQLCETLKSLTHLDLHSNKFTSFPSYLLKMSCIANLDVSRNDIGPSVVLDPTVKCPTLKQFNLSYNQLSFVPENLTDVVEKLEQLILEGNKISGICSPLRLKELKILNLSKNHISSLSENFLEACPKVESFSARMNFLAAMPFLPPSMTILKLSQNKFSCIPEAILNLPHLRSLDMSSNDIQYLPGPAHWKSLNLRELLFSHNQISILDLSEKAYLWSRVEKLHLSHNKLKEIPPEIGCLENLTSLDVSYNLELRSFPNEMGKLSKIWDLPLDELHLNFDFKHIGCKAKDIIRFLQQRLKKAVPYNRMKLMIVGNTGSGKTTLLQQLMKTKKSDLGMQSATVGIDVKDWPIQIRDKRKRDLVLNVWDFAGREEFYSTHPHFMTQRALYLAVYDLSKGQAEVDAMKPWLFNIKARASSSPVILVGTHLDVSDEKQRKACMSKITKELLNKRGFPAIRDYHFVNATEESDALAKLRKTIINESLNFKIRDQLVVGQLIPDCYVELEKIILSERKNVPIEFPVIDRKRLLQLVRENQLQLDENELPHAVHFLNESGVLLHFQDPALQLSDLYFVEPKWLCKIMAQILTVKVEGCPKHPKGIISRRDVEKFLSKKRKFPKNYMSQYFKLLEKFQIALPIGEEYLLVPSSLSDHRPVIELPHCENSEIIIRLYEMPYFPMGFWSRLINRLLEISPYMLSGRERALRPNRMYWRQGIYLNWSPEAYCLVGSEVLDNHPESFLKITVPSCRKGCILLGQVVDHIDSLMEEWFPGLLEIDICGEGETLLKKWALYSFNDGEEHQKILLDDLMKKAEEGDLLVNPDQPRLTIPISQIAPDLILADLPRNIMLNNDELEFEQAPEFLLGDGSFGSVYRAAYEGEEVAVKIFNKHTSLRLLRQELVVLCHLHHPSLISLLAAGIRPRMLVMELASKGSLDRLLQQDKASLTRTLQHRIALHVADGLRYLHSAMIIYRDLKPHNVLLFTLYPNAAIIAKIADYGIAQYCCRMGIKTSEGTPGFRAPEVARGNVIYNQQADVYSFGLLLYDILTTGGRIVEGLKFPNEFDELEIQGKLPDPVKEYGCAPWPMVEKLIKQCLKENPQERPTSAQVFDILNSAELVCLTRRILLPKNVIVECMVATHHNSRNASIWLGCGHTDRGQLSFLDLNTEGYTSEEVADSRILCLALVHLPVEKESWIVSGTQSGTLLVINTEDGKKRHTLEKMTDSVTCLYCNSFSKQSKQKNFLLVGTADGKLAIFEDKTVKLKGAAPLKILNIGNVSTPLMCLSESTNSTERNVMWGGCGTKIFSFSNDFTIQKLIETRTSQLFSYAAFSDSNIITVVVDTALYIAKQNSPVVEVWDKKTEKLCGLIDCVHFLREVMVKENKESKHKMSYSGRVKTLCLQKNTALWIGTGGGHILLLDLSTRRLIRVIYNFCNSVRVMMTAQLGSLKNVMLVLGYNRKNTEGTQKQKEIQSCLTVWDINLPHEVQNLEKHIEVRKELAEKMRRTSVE
Chain of UniProt O43683 (whole entry, looked up): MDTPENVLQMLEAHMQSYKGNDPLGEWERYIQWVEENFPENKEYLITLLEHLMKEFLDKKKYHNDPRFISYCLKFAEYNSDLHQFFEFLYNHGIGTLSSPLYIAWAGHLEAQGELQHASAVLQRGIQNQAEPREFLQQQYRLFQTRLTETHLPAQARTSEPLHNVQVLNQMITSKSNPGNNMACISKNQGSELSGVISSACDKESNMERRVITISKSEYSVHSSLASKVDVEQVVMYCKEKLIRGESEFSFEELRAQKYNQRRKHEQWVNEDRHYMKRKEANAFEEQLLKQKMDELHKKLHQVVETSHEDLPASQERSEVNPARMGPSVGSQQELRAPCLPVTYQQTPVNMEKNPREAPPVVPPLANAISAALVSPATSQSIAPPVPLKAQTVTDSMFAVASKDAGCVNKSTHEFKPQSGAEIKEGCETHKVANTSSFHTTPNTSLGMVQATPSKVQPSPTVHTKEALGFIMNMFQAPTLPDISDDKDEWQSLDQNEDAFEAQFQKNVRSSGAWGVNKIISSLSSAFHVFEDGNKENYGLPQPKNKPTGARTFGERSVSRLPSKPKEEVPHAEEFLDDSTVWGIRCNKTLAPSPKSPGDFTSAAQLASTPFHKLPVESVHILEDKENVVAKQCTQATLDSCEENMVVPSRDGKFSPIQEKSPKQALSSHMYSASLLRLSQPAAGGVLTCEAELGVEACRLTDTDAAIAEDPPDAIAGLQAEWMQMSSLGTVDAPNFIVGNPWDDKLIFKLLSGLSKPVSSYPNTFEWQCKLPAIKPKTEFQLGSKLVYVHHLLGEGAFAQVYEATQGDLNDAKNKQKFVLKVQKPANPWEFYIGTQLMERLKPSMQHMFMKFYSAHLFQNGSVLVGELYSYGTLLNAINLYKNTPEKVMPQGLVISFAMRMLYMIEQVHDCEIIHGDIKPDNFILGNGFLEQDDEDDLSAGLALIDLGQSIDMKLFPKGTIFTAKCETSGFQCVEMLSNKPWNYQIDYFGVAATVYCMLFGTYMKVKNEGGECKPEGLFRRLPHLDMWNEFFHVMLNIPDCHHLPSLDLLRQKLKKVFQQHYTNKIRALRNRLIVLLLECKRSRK
Chain of UniProt P25098 (whole entry, looked up): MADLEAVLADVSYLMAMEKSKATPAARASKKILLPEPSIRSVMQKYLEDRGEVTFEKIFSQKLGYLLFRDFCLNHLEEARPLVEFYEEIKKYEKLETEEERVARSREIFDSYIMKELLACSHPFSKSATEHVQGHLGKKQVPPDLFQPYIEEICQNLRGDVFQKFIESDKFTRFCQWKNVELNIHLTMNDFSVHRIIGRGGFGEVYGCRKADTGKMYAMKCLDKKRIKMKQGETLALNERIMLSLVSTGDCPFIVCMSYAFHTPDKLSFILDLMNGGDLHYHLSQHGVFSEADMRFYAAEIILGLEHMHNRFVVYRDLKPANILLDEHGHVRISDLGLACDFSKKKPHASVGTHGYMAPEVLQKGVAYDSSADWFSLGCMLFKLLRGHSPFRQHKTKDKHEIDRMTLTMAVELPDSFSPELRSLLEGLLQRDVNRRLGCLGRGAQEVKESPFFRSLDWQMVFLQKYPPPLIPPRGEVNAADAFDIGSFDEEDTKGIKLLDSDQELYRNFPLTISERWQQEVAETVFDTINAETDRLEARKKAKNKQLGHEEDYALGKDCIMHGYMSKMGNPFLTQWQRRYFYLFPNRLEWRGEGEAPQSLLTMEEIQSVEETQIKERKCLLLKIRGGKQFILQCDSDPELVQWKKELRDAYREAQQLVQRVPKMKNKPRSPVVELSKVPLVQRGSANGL

Sample 1
Target: Cyclin-dependent kinase 7 (CDK7, Homo sapiens, UniProt P50613)
Chain of UniProt P50613 (whole entry, looked up): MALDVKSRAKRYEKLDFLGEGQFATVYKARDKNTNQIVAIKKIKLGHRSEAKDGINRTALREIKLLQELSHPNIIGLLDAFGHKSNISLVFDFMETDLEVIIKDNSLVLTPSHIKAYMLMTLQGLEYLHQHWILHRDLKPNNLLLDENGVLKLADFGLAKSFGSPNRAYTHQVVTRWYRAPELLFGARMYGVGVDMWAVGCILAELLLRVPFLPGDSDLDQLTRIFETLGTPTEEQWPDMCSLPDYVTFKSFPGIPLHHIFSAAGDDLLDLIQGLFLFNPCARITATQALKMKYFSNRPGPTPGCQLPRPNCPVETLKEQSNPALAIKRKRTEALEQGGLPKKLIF
Read-out: enzyme activity
Mode: inhibitor
Concentration: 0.5 µM
Relative to: control
Structure (SMILES)	remaining activity [%]
C#Cc1cccc(Nc2ncnc3cc(OCCOC)c(OCCOC)cc23)c1	107
Cn1c2ccccc2c2c3c(c4c5ccccc5n(CCC#N)c4c21)CNC3=O	84.6
Cc1cccc(-c2[nH]c(C(C)(C)C)nc2-c2ccc3c(c2)OCO3)n1	106
O=C1NC(=O)C(c2cn(CCCn3ccnc3)c3ccccc23)=C1Nc1ccccc1	96.3
O=C1NC(=O)C(c2cn(CCCO)c3ncccc23)=C1c1cnccn1	96.9
NCCNc1ncc(C(N)=O)c(Nc2cccc(C(F)(F)F)c2)n1	98.5
O=C(O)c1ccc2c3c1cccc3c(=O)n1c3ccccc3nc21	92.1
Nc1ncnc2n[nH]c(Nc3ccc(F)cc3)c12	98.4
N#CC(C#N)=C(N)/C(C#N)=C/c1ccc(O)cc1	91.2
Nc1[nH]nc2nc3ccccc3nc12	98
CO[C@H]1C[C@@H]2CC[C@@H](C)[C@@](O)(O2)C(=O)C(=O)N2CCCC[C@H]2C(=O)O[C@H]([C@H](C)C[C@@H]2CC[C@@H](O)[C@H](OC)C2)CC(=O)[C@H](C)/C=C(\C)[C@@H](O)[C@@H](OC)C(=O)[C@H](C)C[C@H](C)/C=C/C=C/C=C/1C	98.2
Nc1ccc2ncnc(NCCc3ccc(Oc4ccccc4)cc3)c2c1	99.3
O=S(=O)(c1cccc2cnccc12)N1CCCNCC1	95.5
Cc1ccc(NC(=O)c2ccc(CN3CCN(C)CC3)cc2)cc1Nc1nc(-c2cccnc2)cs1	110

Sample 2
Target: CRIPT, C-terminal peptide
Technique: DHFR complementation, deep sequencing
Sample: yeast
Setting: single substitutions, model-inferred values
Relative to: wild type
Reading: higher = weaker binding
Starting sequence: ERBIN, PDZ domain 1 (human); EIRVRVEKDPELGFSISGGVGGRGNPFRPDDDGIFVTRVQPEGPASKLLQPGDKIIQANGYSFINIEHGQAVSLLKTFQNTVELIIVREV; partner TKNYKQTSV
Variant	binding free energy change [kcal/mol]
H68A	1.35
G69D	-0.525
R3C	-0.226
F27N	1.2
R3S	-0.151
V36M	0.522
V72E	1.49
G21Y	0.28

Sample 3
Target: RING finger protein unkempt homolog, zinc fingers 1-6, GST-SBP tag (UNK, Homo sapiens, UniProt Q9C0B0, residues 30-357)
Technique: RNA Bind-n-Seq
Form: RNA
Sample: in vitro
Concentration: not given
Setting: RNA with constant flanks, human-mouse chimeric sites, ends assumed
Relative to: input RNA pool
Reading: higher = stronger binding
Construct (chain): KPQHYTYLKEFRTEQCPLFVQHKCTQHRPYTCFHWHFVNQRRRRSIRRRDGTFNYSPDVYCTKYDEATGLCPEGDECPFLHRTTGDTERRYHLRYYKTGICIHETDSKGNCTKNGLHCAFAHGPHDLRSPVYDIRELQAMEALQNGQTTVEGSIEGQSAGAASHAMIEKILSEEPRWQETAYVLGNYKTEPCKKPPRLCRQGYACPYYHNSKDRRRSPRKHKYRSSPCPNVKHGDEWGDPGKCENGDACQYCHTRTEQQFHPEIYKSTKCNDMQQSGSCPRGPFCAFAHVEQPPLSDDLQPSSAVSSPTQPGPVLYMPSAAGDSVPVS
Sequence	bound/input enrichment [ratio]
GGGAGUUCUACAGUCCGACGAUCCAGCCUCAGAGCCCAGACUUCCUGGAUAUUACCAACCCUAAAGCGGUAUUAGAAAACGCAUUGAGAAACUUCGCCUGUCUGACGACUGGAGAUGUGAUUGCUAUCAACUAUAAUGAAAAGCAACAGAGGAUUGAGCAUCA	0.457
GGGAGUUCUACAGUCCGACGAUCUCUGGCCACACUCGUGUGUAUGGUGUUUGCUUUGUGGACACUUCACUGGGCAAGUUUUUCAUCGGCCAGUUUUCGGAUGACCGCCACUGUUCCAGAUUUAGGACGCUAGUGGCUCACUAUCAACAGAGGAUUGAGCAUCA	0.197
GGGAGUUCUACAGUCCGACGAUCGUUGCCAGCUUCCGGUUCCGUUGGGCUCGGUUCUCUCCUGAGCUACGUGUCUCUACGCUCUCAAUCCGCCAUCCAACAAACAUGGAUGAUCAGGUAAAGUUUGUGGAUGAGCCAAGUCAGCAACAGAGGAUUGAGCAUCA	0.0466
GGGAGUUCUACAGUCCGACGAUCCGGAAGUUCUUGAUUUAUCAUUUUUCUUGCUCGGGUUUUUCCUUUAGGAAAAGCCUAAAGAUUAGGUUGUAAGAAAAACAGAAGCCAUGUUUCGAAGACCUGUGUUACAGGUAUUUCGUCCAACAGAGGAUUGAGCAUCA	0.24
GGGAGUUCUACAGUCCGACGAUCACCUCCCAGGCCUGGGACACCCCACCCCCGCUUUUUGGAAAGUUUUUGGCGUUUCUUUUCCUUCCCCAUACAAAGUGAUUACAGUUUCCCCCGCAAGGGUCUAUCGAAGGGCUUGACGGACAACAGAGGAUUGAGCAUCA	0.629
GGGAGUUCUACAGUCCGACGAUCGUGACUGGUGUUAAGAUUUCCCCUCAGAAAAGAACUGCAGUAGUCACCAUAAUUCCAUCUGUGGUGAGUGCCAGUCAGAUUGUGGAGCUGGUCCCAGAACUCAGUUUAGACAUGGGAACUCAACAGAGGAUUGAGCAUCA	0.474
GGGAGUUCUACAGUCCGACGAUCAAAGUGAUGACUAUGUUUGUACAGCGACAGGUAUUUUCGGAGAGCAAAGAUGAGAUUGCGUUAGUCCUCUAUGGCACAGAUGGCACUGAUAAUGCCCUUGCUGGCAAGGACCAGUAUCAGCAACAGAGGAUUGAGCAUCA	0.161
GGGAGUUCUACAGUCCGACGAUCGACUUGGGACCGUCCUGGGCUAGUACAAAUAGCGGCAGUGGAGGCUCGAGAGGAAAGUUUGUUAGUGGAGGCAGUGGUAGAGGCCGUAUGUACGCUCCCUUUACUCGAUAGAUGUGUUCUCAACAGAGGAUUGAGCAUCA	0.439

Sample 4
SMILES: O=C1CCc2cc(Nc3cc(OC4CCOCC4)c([N+](=O)[O-])cc3Cl)ccc2N1
Technique: competition with immobilised ligand
Concentration: 1 µM
target	test	remaining binding [%]
BUB1 (Homo sapiens, UniProt O43683)	cell-free assay	89
PIK3CB (Homo sapiens, UniProt P42338)	cell-free assay	97
Ribosomal protein S6 kinase alpha-5, C-terminal kinase domain (RPS6KA5, Homo sapiens, UniProt O75582)	cell-free assay	100
RIPK2 (Homo sapiens, UniProt O43353)	cell-free assay	53
LRRK2 (Homo sapiens, UniProt Q5S007, G2019S)	cell-free assay	100
PIK3CA (Homo sapiens, UniProt P42336, E545A)	cell-free assay	100
CDK11B (Homo sapiens, UniProt P21127)	cell-free assay	98
STK35 (Homo sapiens, UniProt Q8TDR2)	cell-free assay	100
GRK2 (Homo sapiens, UniProt P25098)	cell-free assay	87
EPHA2 (Homo sapiens, UniProt P29317)	cell-free assay	75
PIP5K1A (Homo sapiens, UniProt Q99755)	cell-free assay	100
EGFR (Homo sapiens, UniProt P00533, G719C)	cell-free assay	100
NEK1 (Homo sapiens, UniProt Q96PY6)	binding	40
BRAF (Homo sapiens, UniProt P15056, V600E)	cell-free assay	100
CSF1R (Homo sapiens, UniProt P07333)	cell-free assay	96

Repeated from above (sample 4):
target	test	remaining binding [%]
GRK2 (Homo sapiens, UniProt P25098)	cell-free assay	87
EPHA2 (Homo sapiens, UniProt P29317)	cell-free assay	75
PIP5K1A (Homo sapiens, UniProt Q99755)	cell-free assay	100
